Experimental data from different studies.
Each numbered part is a random draw from the data of one study; scales do not carry over between parts. Positions count from the first letter of the parent shown.

Sample 1
Target: ABI1, truncated, D143A, DHFR fusion (Arabidopsis thaliana)
Method: DHFR PCA, deep sequencing
Medium: yeast
Setting: methotrexate growth selection, single substitutions
Together with: (+)-ABA 0 µM
Baseline: wild-type fitted maximum
Direction: higher = stronger binding
Starting sequence: PYL1, truncated, DHFR fusion (Arabidopsis thaliana); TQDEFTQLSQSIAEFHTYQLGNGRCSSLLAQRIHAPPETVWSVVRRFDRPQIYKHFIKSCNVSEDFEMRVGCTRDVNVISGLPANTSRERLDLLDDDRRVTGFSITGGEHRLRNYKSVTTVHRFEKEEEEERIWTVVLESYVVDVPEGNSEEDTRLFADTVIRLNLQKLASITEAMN
Variant | relative binding score
T73D | -4.73%
V145S | -9.47%
S171G | 2.56%
N177M | 34%
V62G | -4.02%
E131F | 11.9%
T154I | 22.8%
D48P | -1.46%
F15R | -0.364%
E4W | 19.9%
E38W | 3.84%
N85E | 36%
E151N | -5.96%
Q2K | 21%
F157M | 7.84%
G148M | -10.2%
L82R | 7.59%
G21D | 20.3%

Sample 2
Target: UBE2N UBC core domain (UniProt P61088)
Chain of UniProt P61088 (whole entry, looked up): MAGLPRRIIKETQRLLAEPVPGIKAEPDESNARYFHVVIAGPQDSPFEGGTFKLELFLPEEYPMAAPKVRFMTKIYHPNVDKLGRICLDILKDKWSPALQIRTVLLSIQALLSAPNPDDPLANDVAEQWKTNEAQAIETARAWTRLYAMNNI
Method: yeast two-hybrid
Medium: yeast
Setting: mostly zero background
Baseline: not given
Direction: higher = stronger interaction
B1: RNF166 RING domain (UniProt Q96A37); chain GDSGLEAQYTCPICLEVYHRPVAIGSCGHTFCGECLQPCLQVPSPLCPLCRLPFDPKKVDK
B2: RNF2 RING domain (UniProt Q99496); chain SPRSLHSELMCPICLDMLKNTMTTKECLHRFCADCIITALRSGNKECPTCRKKLVSKRSLR
B3: ANAPC11 RING domain (UniProt Q9NYG5); chain GICRMAFNGCCPDCKVPGDDCPLVWGQCSHCFHMHCILKWLHAQQVQQHCPMCRQEWKFKE
B4: RNF152 RING domain (UniProt Q8N8N0); chain ETLSQDSLLECQICFNYYSPRRRPKLLDCKHTCCSVCLQQMRTSQKDVRCPWCRGVTKLPPGFS
B5: TRIM31 RING domain (UniProt Q9BZY9); chain FVNKLQEEVICPICLDILQKPVTIDCGHNFCLKCITQIGETSCGFFKCPLCKTSVRKNAIRF
B6: MKRN2 RING domain (UniProt Q9H000); chain FAFQASQDKVCSICMEVILEKASASERRFGILSNCNHTYCLSCIRQWRCAKQFENPIIKSCPECRVISEFVIPSV
Molecule | lacZ reporter activity
B1 (RNF166 RING domain) | 0
B2 (RNF2 RING domain) | 0
YPEEVDDDLICHICLQALLDPLDTPCGHTYCTLCLTNFLVEKDFCPMDRKPLVLQHCKK (LNX1 RING domain (UniProt Q8TBB1)) | 0
FVKTVEDKYKCEKCHLVLCSPKQTECGHRFCESCMAALLSSSSPKCTACQESIVKDKVF (TRAF3 RING domain (UniProt Q13114)) | 0
YCEMGSTFQLCKICAENDKDVKIEPCGHLMCTSCLTAWQESDGQGCPFCRCEIKGTEPII (CBLB RING domain (UniProt Q13191)) | 0
B3 (ANAPC11 RING domain) | 0
B4 (RNF152 RING domain) | 10800
B5 (TRIM31 RING domain) | 0
B6 (MKRN2 RING domain) | 0
QVQSRTKIEECVVCSDKKAAVLFQPCGHMCACENCANLMKKCVQCRAVVERRVPFI (MIB1 RING domain (UniProt Q86YT6)) | 0

Sample 3
Target: CCND1, cyclin fold, Cln2 fusion (human)
Method: yeast growth competition, sequencing
Medium: yeast
Setting: weak parent motif
Baseline: not given
Direction: higher = stronger binding
Starting sequence: CDKN1B docking peptide (human); PSACRNLFGPVDH
Variant | normalised enrichment score
PSACRNLFGPVDM [H13M] | 0.81
PSACSNLFGPVDH [R5S] | 0.24
PSACRNLFGPWDH [V11W] | 1.32
PSACDNLFGPVDH [R5D] | 0.296
VSACRNLFGPVDH [P1V] | 0.605
PSAMRNLFGPVDH [C4M] | -0.156
PSPCRNLFGPVDH [A3P] | 0.554
ASACRNLFGPVDH [P1A] | 1.13
PVACRNLFGPVDH [S2V] | 0.623
PSATRNLFGPVDH [C4T] | 0.168
ISACRNLFGPVDH [P1I] | -0.0318
PSACFNLFGPVDH [R5F] | 0.501
PSACRNLSGPVDH [F8S] | 0.632
PSACRNTFGPVDH [L7T] | -0.0536
PSACANAFGPVDH [R5A L7A] | -0.228
PSACRNLFGPEDH [V11E] | 1.24
PSACRNLFGPDDH [V11D] | 0.666
DSACRNLFGPVDH [P1D] | 0.343
PSACRNLFGPVDR [H13R] | 0.686
PSACRNLFGSVDH [P10S] | 0.473
PSACINLFGPVDH [R5I] | 0.344
PSRCRNLFGPVDH [A3R] | 0.105
PSACRMLFGPVDH [N6M] | 1.63
PSACRNLFGPVMH [D12M] | 0.451
PSACRNLFGPHDH [V11H] | 1.08

Sample 4
Target: RNA binding protein fox-1 homolog 2, RRM domain, GST-SBP tag (RBFOX2, Homo sapiens, UniProt O43251-10, residues 100-194)
Method: RNA Bind-n-Seq
Molecule type: RNA
Medium: in vitro
Concentration: 365 nM
Setting: natural RNA segment, single round, ends assumed
Baseline: no-protein control
Direction: higher = stronger binding
Constant ends, left off below: GGGAGUUCUACAGUCCGACGAUC … UGGAAUUCUCGGGUGCCAA
Target sequence (chain): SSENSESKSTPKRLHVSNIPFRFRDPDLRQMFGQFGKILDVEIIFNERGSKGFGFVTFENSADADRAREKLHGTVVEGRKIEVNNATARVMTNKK
Sequence | RBNS enrichment (R)
UGUAGAUAAAGACUUAAAUUUUUGUGCAACAUAGUGGUGUUAAAGCACACAUCCAUUGGACUAUGCAAAUCAAUUUCUACUAGCAGCACUGAGCAACUGGGCACGUGCUA | 0.903
AGUUGUCAAGGUGUAAGCCUCACUGUAAGUUACAAAGCUACCACUCCCCUCUUUAAGAACACAUAGCUUAGGAUUGCCUUGGCGAUGUGGGCUCUUUUUUGGUUCCAUAU | 0.177
AGAUUAUUUCAGAAAAAUGCAAUAAGGGGAAUAGUUUUGGGGUUUAUUUUUUAUUUUAAAAGAAAAUUGACUUAUUUACCACAAGCUAUUUUUUUCCCUUCUGGCUGUAA | 0.695
UGCUAAUUGUGUAUAUGUUGGUUUAAUUAUUAAUUAUGUACUAAGAAUGUCCUUAUUCUUGUGGUUAAAAAACCUGCCUGAAUUAAAUUGGGCUUAAAUCAGUGUAACCU | 0.498
CCUUUGAAAGAUGUGAAUGUAGAGACAAUUGCAGACCUUUUGGUUUCAUCUGUGUUCUGAAAUAUAAAAUACAACCAAAAUUCUACCUUCAUCCUACCCAGAAAUUAUUG | 0.447
GAGAGCAACCUCCUCCCUCGUAGAGGGAGAUUAUAUCCCCAACUCCAGGGACCUCUUUAUCUCAAUCUAUUUAUUUGGCAUCCUGGGAGGGAUUUCCAAUAGUAAUUUAU | 0.25
AAAGUGAGAAUUCAAGCACAUUUCUUUCCUUUGCUAUGUAGGGAGGCUGCUGCCUUCCCAGAGCCUGGAGGCAGCUCUGCUGUUCAGCCCCAAACUUUGUUUACACUGCU | 0.404
AAACCAUUUCUGUCCAAGAGAAAAUGACUUUUUGCUUUGAUAUUAAAAAUUCAAUGAGUAAAACAAAAGCUAGUCAAAUGUGUUAGCAGCAUGCAGAACAAAAACUUUAA | 7.16

Excerpt of the above (sample 3):
Variant | normalised enrichment score
PSACRNLFGPEDH [V11E] | 1.24
DSACRNLFGPVDH [P1D] | 0.343
PSACRNLFGPVDR [H13R] | 0.686
PSACRNLFGPVDM [H13M] | 0.81
PSACRNLFGPDDH [V11D] | 0.666
VSACRNLFGPVDH [P1V] | 0.605
ASACRNLFGPVDH [P1A] | 1.13
